Measured values collected from several papers.
Each numbered part is a random draw from the data of one study; scales do not carry over between parts. “And” joins repeats or separate records; there may be more than shown.
Sequence of UniProt P46734 (whole entry, looked up): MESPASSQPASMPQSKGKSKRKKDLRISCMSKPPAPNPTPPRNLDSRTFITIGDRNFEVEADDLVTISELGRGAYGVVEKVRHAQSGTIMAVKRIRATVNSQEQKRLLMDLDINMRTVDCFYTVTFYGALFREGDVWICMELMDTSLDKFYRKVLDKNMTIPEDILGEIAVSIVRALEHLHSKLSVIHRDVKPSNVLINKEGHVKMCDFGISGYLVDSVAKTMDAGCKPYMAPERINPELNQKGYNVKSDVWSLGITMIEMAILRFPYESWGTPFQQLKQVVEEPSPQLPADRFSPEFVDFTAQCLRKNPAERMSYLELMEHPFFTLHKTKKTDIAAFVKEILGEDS
Sequence of UniProt P49761 (whole entry, looked up): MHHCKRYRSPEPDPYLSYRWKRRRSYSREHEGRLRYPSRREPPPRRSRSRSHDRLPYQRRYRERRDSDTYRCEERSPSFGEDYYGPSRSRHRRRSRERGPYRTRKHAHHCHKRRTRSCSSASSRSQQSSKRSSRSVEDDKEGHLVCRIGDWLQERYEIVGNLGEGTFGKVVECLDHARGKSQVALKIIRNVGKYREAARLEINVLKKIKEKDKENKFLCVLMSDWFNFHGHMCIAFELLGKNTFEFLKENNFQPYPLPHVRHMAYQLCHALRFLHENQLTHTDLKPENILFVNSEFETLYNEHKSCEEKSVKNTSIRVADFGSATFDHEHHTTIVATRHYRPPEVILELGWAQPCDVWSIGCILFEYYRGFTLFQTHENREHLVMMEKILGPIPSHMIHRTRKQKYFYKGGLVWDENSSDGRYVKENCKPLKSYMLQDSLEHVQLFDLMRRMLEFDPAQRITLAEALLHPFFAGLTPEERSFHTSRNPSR
Sequence of UniProt P42336 (whole entry, unmodified, looked up): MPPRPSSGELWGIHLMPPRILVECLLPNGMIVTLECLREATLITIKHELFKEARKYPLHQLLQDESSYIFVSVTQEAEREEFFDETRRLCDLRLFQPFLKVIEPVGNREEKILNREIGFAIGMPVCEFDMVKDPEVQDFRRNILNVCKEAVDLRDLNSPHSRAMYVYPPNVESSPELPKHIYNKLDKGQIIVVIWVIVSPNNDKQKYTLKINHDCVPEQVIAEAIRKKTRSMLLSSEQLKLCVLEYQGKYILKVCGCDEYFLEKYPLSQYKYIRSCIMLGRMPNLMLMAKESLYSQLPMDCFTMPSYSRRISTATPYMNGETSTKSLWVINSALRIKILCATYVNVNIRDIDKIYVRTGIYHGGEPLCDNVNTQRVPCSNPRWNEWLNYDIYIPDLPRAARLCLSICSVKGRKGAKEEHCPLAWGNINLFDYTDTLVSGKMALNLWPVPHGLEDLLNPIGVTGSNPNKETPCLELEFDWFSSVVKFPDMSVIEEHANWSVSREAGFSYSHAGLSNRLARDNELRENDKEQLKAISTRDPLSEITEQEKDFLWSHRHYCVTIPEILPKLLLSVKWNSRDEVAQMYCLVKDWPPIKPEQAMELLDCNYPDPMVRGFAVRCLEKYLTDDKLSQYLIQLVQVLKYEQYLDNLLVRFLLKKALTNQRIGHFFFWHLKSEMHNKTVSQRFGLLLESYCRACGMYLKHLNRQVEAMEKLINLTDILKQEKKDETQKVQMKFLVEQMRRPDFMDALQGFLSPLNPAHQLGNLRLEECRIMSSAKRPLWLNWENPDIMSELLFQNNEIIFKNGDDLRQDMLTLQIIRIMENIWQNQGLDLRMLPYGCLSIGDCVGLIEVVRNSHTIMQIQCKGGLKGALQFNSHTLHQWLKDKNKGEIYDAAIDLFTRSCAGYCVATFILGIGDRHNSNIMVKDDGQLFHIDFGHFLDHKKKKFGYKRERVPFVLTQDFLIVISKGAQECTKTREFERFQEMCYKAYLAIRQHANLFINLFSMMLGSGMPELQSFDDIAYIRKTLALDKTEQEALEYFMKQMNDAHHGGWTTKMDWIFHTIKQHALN
Sequence of UniProt Q8N5S9 (whole entry, looked up): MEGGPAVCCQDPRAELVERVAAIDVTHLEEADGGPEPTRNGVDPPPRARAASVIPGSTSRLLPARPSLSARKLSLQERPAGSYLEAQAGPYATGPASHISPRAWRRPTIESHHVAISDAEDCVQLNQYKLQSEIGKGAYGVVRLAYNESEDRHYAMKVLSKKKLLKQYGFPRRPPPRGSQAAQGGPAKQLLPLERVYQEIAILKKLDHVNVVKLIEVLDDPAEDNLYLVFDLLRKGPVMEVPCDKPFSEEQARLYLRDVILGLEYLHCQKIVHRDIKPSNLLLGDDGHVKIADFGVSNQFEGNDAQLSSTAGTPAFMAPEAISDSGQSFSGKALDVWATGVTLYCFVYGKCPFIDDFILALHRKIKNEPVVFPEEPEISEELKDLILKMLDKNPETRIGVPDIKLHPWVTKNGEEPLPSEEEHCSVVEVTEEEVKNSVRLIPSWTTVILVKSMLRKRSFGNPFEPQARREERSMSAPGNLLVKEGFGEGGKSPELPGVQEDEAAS

Sample 1
SMILES: O=C(Nc1cnn(-c2csc(C(=O)NC3COC3)c2)c1)Nc1ccccc1Cl
Observed: enzyme activity
Concentration: 5 µM
Relative to: untreated control
Measurement: remaining activity
G protein-coupled receptor kinase 4 (GRK4, Homo sapiens, UniProt P32298): 93.2%
STE20-like serine/threonine-protein kinase (SLK, Homo sapiens, UniProt Q9H2G2): 87.9%
MAP/microtubule affinity-regulating kinase 3 (MARK3, Homo sapiens, UniProt P27448): 97.7%
Rhodopsin kinase GRK7 (GRK7, Homo sapiens, UniProt Q8WTQ7): 94.9%
Hepatocyte growth factor receptor (MET, Homo sapiens, UniProt P08581): 100%
Myosin light chain kinase family member 4 (MYLK4, Homo sapiens, UniProt Q86YV6): 83.4%
ALK tyrosine kinase receptor (ALK, Homo sapiens, UniProt Q9UM73): 99.8%

Sample 2
SMILES: O=C1NC(c2ccccn2)Sc2ccccc21 (centres unmarked)
Observed: cell-free assay
Technique: competition with immobilised ligand
Concentration: 1 µM
Measurement: remaining binding
Ribosomal protein S6 kinase alpha-5, N-terminal kinase domain (RPS6KA5, Homo sapiens, UniProt O75582): 95%
Ephrin type-A receptor 3 (EPHA3, Homo sapiens, UniProt P29320): 100%
Dual specificity mitogen-activated protein kinase kinase 3 (MAP2K3, Homo sapiens, UniProt P46734): 81%
Serine/threonine-protein kinase Nek1 (NEK1, Homo sapiens, UniProt Q96PY6): 100%
Calcium/calmodulin-dependent protein kinase kinase 1 (CAMKK1, Homo sapiens, UniProt Q8N5S9): 88%
Phosphatidylinositol 4,5-bisphosphate 3-kinase catalytic subunit alpha isoform (PIK3CA, Homo sapiens, UniProt P42336, C420R): 100%
Tyrosine-protein kinase receptor UFO (AXL, Homo sapiens, UniProt P30530): 92%
Interleukin-1 receptor-associated kinase 1 (IRAK1, Homo sapiens, UniProt P51617): 96%
Tyrosine-protein kinase ABL1, phosphorylated (ABL1, Homo sapiens, UniProt P00519, T315I): 93%
Dual specificity protein kinase CLK3 (CLK3, Homo sapiens, UniProt P49761): 97%
Tyrosine-protein kinase ITK/TSK (ITK, Homo sapiens, UniProt Q08881): 77%
Mitogen-activated protein kinase 12 (MAPK12, Homo sapiens, UniProt P53778): 51%
Mitogen-activated protein kinase kinase kinase 2 (MAP3K2, Homo sapiens, UniProt Q9Y2U5): 82%
Epidermal growth factor receptor (EGFR, Homo sapiens, UniProt P00533): 82%
Tyrosine-protein kinase CSK (CSK, Homo sapiens, UniProt P41240): 100%
Peripheral plasma membrane protein CASK (CASK, Homo sapiens, UniProt O14936): 71%
Serine/threonine-protein kinase PAK 6 (PAK6, Homo sapiens, UniProt Q9NQU5): 100%
Mitogen-activated protein kinase kinase kinase 9 (MAP3K9, Homo sapiens, UniProt P80192): 88%
Serine/threonine-protein kinase NIM1 (NIM1K, Homo sapiens, UniProt Q8IY84): 100%
Serine/threonine-protein kinase 33 (STK33, Homo sapiens, UniProt Q9BYT3): 93%
Receptor tyrosine-protein kinase erbB-2 (ERBB2, Homo sapiens, UniProt P04626): 71%
Tyrosine-protein kinase JAK2, JH1 (JAK2, Homo sapiens, UniProt O60674): 84%
Serine/threonine-protein kinase MARK2 (MARK2, Homo sapiens, UniProt Q7KZI7): 92%
Phosphatidylinositol 4,5-bisphosphate 3-kinase catalytic subunit gamma isoform (PIK3CG, Homo sapiens, UniProt P48736): 91%
Macrophage-stimulating protein receptor (MST1R, Homo sapiens, UniProt Q04912): 100%

Sample 3
Target: Tyrosine-protein kinase SYK (SYK, Homo sapiens, UniProt P43405)
Observed: enzyme activity
Mode: inhibitor
Concentration: 0.5 µM
Relative to: control
Measurement: remaining activity
Cc1cc(Nc2cc(N3CCN(C)CC3)nc(Sc3ccc(NC(=O)C4CC4)cc3)n2)[nH]n1: 99.2%
O=C1NC(=O)c2c1c1c3ccccc3[nH]c1c1[nH]c3cc(Br)ccc3c21: 58.3%
CCCCc1c(-c2ccc(OC)cc2)[nH]c2nccnc12: 47.5%
O=c1cc(N2CCOCC2)oc2c(-c3ccccc3)cccc12: 99.7%
O=Nc1c(-c2c(O)[nH]c3cc(Br)ccc23)[nH]c2ccccc12: 45.7%
CN(C)S(=O)(=O)c1ccc2c(c1)/C(=C/c1cc3c([nH]1)CCCC3)C(=O)N2: 77.7%
O=C1NC(=O)c2c1c1c3ccccc3[nH]c1n1cncc21: 84.9%
CCCNC(=O)Nc1ccc(Oc2ncnc3cc(OC)c(OC)cc23)cc1Cl: 97.5%
COc1cccc(-c2cc(=O)c3ccccc3o2)c1N: 97.2%
O=C1Cc2c([nH]c3ccc(Br)cc23)-c2ccccc2N1: 81.5%
Cc1ccc(S(=O)(=O)/C=C/C#N)cc1: 105%
N#Cc1cnc2cnc(NCc3cccnc3)cc2c1Nc1ccc(F)c(Cl)c1: 94.4%
c1ccc(-c2n[nH]c3c2oc2ccccc23)cc1: 97.7%
O=C1Nc2ccccc2/C1=C\c1c(Cl)[nH]c2ccccc12: 102%
COc1ccc2c(c1)c(C1=C(c3c[nH]c4ccccc34)C(=O)NC1=O)cn2CCCN(C)C: 68.5%
CN1CCN(c2ccc3nc(-c4c(N)c5c(F)cccc5[nH]c4=O)[nH]c3c2)CC1: 65.4%
c1ccc2c(-c3ccncc3)c[nH]c2c1: 98.6%

Mixed results
CC(C)C[C@H]1NC(=O)[C@H](N(C)C(=O)[C@@H](CC2CCC2)NC(=O)[C@H]2C[C@H](F)CN2C(=O)C2(C(F)(F)F)CC(F)(F)C2)CCCCNC(=O)C2(CC2)NC(=O)[C@@H](Cc2cc(Cl)ccc2Cl)N(C)C1=O
cell count (NCI-H1299; Vi-Cell counting; 200 nM, 6 days; relative to: DMSO): 1.02 and 1.05 and 0.97
